Assay results from different studies.
Compare with care: the assays were run in different laboratories.

CCO[C@H]1CCN(Cc2c(OC)cc(C)c3[nH]ccc23)[C@H](c2ccc(C(=O)O)cc2)C1
incidence reverse T3 increase (PNH patients, active haemolysis; oral, 25 mg, treatment): 0%

C[C@@H](N)C1CCN(S(=O)(=O)c2cccc3cnccc23)CC1
incidence of orthostatic hypotension TEAE (healthy volunteers; 150 mg, fed): 0%

NCCONC(=O)[C@@H]1CC[C@@H]2CN1C(=O)N2OS(=O)(=O)O
incidence of serious TRAE (healthy Chinese male subjects; intravenous, 2 g): 0%

O=C(Nc1nc2cccc(-c3ccc(CN4CCS(=O)(=O)CC4)cc3)n2n1)C1CC1
incidence of dizziness (rheumatoid arthritis patients; oral, 300 mg once daily, 4 weeks, TEAE regardless of relatedness): 0%

C=CC(=O)Nc1cc(Nc2nccc(-c3cn(C)c4ccccc34)n2)c(OC)cc1N(C)CCN(C)C
incidence of treatment-related AEs (refers to: drug hypersensitivity; EGFR-mutant MET-altered NSCLC patients; oral, dose not given, AE grade ≥3, all): 4%

NC1(C(=O)N[C@@H](CCO)c2ccc(Cl)cc2)CCN(c2nc[nH]c3nccc2-3)CC1
incidence of blood creatinine increased (metastatic CRPC patients; 480 mg b.i.d., any grade, treatment-related, with: enzalutamide 160 mg daily): 0%

COc1ccc([C@@H](O)c2cc(-c3ncnc4cc(N5CCOCC5)ccc34)c(F)cc2Cl)nn1
incidence of proctalgia TEAE (locally advanced rectal cancer; oral, 150 mg, with: capecitabine and radiotherapy): 50%

C[C@@H](c1ccc2nccn2c1)n1nnc2ncc(-c3cnn(C)c3)nc21
incidence of treatment-related AEs (refers to: maculopapular rash; EGFR-mutant MET-altered NSCLC patients; oral, dose not given, AE grade ≥3, all): 1%

N#CCNC(=O)c1ccc(-c2ccnc(Nc3ccc(N4CCOCC4)cc3)n2)cc1
incidence of peripheral neuropathy (patients with myelofibrosis; oral, 200 mg, 24 weeks, phase III trials): 9.1%

Repeated from above:
C[C@@H](c1ccc2nccn2c1)n1nnc2ncc(-c3cnn(C)c3)nc21
incidence of treatment-related AEs (refers to: maculopapular rash; EGFR-mutant MET-altered NSCLC patients; oral, dose not given, AE grade ≥3, all): 1%
